Measurements from different studies.
Numbered parts are unrelated; each lists some results of a single study. Positions count from the first letter of the parent shown.

Sample 1 — method: protein-binding microarray; molecule type: double-stranded DNA, one strand shown; matrix: in vitro; tested at: 2200 nM top; setting: 60-bp whole probe; together with: salmon DNA 0.4 mg/ml; baseline: random background probes; reading: higher = stronger binding; quantity: fitted relative affinity; shared flanks, not repeated: GCCTAGCAC … GTCTTGATTCGCTTGACGCTGCTG
Target: Interferon regulatory factor 7, full length, phosphomimetic (IRF7, Homo sapiens, UniProt Q92985, residues 1-503, S471D/S472D/S475D/S476D/S477D/S483D/S484D/S487D)
Chain of UniProt Q92985 (whole entry, unmodified, looked up): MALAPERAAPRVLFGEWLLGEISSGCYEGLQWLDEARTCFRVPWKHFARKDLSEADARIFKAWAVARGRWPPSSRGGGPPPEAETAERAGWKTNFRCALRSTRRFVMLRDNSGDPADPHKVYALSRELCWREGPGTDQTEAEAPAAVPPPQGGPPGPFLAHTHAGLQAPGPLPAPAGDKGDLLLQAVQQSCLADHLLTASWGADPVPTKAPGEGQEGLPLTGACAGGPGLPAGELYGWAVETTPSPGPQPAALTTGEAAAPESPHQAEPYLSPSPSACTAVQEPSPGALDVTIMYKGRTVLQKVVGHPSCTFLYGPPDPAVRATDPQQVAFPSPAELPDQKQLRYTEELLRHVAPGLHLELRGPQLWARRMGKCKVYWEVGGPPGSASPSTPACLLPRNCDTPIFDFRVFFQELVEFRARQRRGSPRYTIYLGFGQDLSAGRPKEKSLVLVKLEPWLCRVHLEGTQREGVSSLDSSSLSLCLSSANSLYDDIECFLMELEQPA
Strand = GACGATATCGGGCATCGAGACGTGCTA; value = -0.44 z-score
Strand = GACGGTCTCGGCATCGGGACGTGCTAG; value = -0.584 z-score
Strand = TTAGGTATCGGGTTACGGTTAGTGCTA; value = 1.6 z-score
Strand = TTACGTTTCGGTATCGGTTAGTGCTAG; value = 7.55 z-score
Strand = AGATGAAAAGTGAAGCCTAGGTGCTAG; value = -0.915 z-score
Strand = TTAGAACAGAGTATCGATTAGTGCTAG; value = -0.586 z-score
Strand = TCAACTTGTCTTTTCACACTGTGCTAG; value = 1.52 z-score
Strand = TTACAACTGAGTTTCGATTAGTGCTAG; value = 4.33 z-score
Strand = AGAGCTCTGGCACCTCTAGACGTGCTA; value = -0.536 z-score
Strand = TTAGGTTTCGGTTCCGGTTCGTGCTAG; value = 12.7 z-score
Strand = GGCGAACTGAGTATCGAGACGTGCTAG; value = -0.588 z-score
Strand = GACGGAATCGGTCTCGGGACGTGCTAG; value = 0.0789 z-score
Strand = TGTCCTTTCTCCATGGGTATGTGCTAG; value = 1.78 z-score
Strand = GACGGTTTCGGACTGAGGACGTGCTAG; value = 3.49 z-score
Strand = TTAGGTATCGCACTGGGTTAGTGCTAG; value = 0.448 z-score
Strand = TTAGGACTGTGTCTCGGTTAGTGCTAG; value = 0.187 z-score
Strand = GACGGTCTCCTTTTCCTGTCGTGCTAG; value = 2.47 z-score
Strand = GACGGTCTCGGTATAGGGACGTGCTAG; value = -0.023 z-score
Strand = TTAGGTATCGGTATCGGTAAGTGCTAG; value = 0.785 z-score
Strand = TTAGGACTGGACTTTCGTTTAGTGCTA; value = 4.24 z-score
Strand = TTAGGTATCGGTAACGGTTAGTGCTAG; value = -0.0282 z-score
Strand = TTAGGACTGGGTTTCGGTTGGTGCTAG; value = 5.49 z-score
Strand = CTAGGTCTCGGACTGGGTTAGTGCTAG; value = -0.564 z-score
Strand = TAGTTTTTACTTTCTGAATGGTGCTAG; value = 4.8 z-score
Strand = TGCCCCCACACTCCTAGCACGTGCTAG; value = 0.415 z-score

Sample 2 — target: CCNA2, cyclin fold, Cln2 fusion (human); method: yeast growth competition, sequencing; matrix: yeast; setting: strong parent motif; baseline: not given; reading: higher = stronger binding; quantity: normalised enrichment score
Starting sequence: REPIN1 docking peptide (human); QSFRGWVALVLHL
Variant = QSFRGWVALALHL [V10A]; value = 0.979
Variant = QSFRAWVALVLHL [G5A]; value = 2.3
Variant = QSFRGWVALVLHA [L13A]; value = 1.83
Variant = QSFRGWVALVAHL [L11A]; value = 2.05
Variant = QSARGWVALVLHL [F3A]; value = 1.8
Variant = QSFRGWAALVLHL [V7A]; value = 2.47

Sample 3 — method: RNA Bind-n-Seq; molecule type: RNA; matrix: in vitro; tested at: 365 nM; baseline: no-protein control; reading: higher = stronger binding; quantity: RBNS enrichment (R)
Target: RNA binding protein fox-1 homolog 2, RRM domain, GST-SBP tag (RBFOX2, Homo sapiens, UniProt O43251-10, residues 100-194)
Setting: natural RNA segment, single round, ends assumed
Shared flanks, not repeated: GGGAGUUCUACAGUCCGACGAUC … UGGAAUUCUCGGGUGCCAA
Construct (chain): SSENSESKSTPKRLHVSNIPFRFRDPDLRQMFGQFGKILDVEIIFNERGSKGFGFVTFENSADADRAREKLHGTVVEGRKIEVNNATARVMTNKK
Strand = GAACUCUUUUUCUCCCUUGUACUUUUUUUUGACCUGGCAUCUUUUUAUAGGGAAAAAUGGCCUUUGUAGGCAGUGGAAAACUUGCAAGGAAAGCUGCCGUCUCUUUGGCA; value = 1.3
Strand = GGGCGGGGAGGUCUUUUCCCUGCCCAUGUUUUUUUGUGCUUAUUAGAGGUGCAAACAGCGAGCGAUUAAGAACUGUUGGUCAACUGUUACGAGACUAUAAAAGGCUUAGC; value = 0.292
Strand = UAGGCUAAUGAUGUUCACUCAUUCUUUGAGGCAGUAGUUACCUAGGCAGACACUUUAGGUUGGUACUUUUAUUCUAAAAGCCUUUUUAAGGGUAAUCUUCCUUCUCUGAU; value = 0.231
Strand = GACUGAACUUUUCUCAUAUUUUCACAUUUCUCAGUCCUGAAGAAUAAGGAAAACAAAGCGACGCCUAUUUUGUAUAAAGUUUCCGACUCCGUCUUGGCCAUGUCUAGUAA; value = 0.456
Strand = AUAAGUGACCAAGACGGGACUUUCCACAUUUUAGUCUACAUUCUAAUCUUAAAGGAAUAAAGCACUGAAUUGGGACUAACAUUCUGAUAGGUUGCACCCUUAAGAGUAUU; value = 0.413
Strand = AAUAAUACCUUAAUCCAGGGUAGGGAGACGUUGCACAAUGCAUUGCAUUAUAUAUACCUAUCACUGAUUUAAUGUUCCAAUGUAGAUAGACACUAUUAAAUAAGCAGUAA; value = 0.533
Strand = AUGGAGAUGUUGCGUUACUAUGGAGCUUACAUGAAAUGGGUAGCAUAUAGUUAAAGGUCGUGACAAAAACUAUAACAUAACCUUGGACUUUUUCCACGGGGUCCUUUUAU; value = 0.985
Strand = AAGUGUUCAGCACUUGUGAGUGAAAAAUCAUGUAAUUAUCUGUAAAUAUGUAGCUAACAAAUUGACCUAGUUUCUGUAUUUUUUUGUUUUUGUACUAAAGUUUAUAGGUC; value = 0.494
Strand = CCUCUGCCUCCCAGGUUCAAGCGAUUCUCCUGCCUCAGCCUCCAGAGUAGCUAGGAUUACAGAUACGUGCCACCAUACCCGGCUAAUUUUUAUAUUUUUAGAGACAGGGA; value = 0.346
Strand = UCUUCAUGGUCUGCUGUGCACAAACUAUAUCCGAGAGAUCCUGUCUCCCCAAAAGCCACUGCUGGGAUGCUGGCCUCUGAUUUUUGAGCCAGCGUUGUCUCACUCUGAUC; value = 0.31
Strand = AAAUUUGAGGAAAAUGUUCUCUCCUGGGCCAGCCUCACAGCUUGCGUUGGGUGUGUUGGAAUUGUUCUCUUCGGCCUUGUUCUGCCUUGUGAUCUUUUCAAUUCAGUGAA; value = 0.357
Strand = CUUGAAAAGACUUAUUACAGUAGCUGGCACAUAAAGACUUGAUAGUAGUUUAUAUGGAUGCUAUCUCAUAUUAGCAUAUAUGGAAUUAAUAGUGUAUCACUAUACUUUUU; value = 0.589

Sample 4 — method: DHFR PCA, deep sequencing; matrix: yeast; together with: (+)-ABA 0.39 µM; baseline: wild-type fitted maximum; reading: higher = stronger binding; quantity: relative binding score
Target: ABI1, truncated, D143A, DHFR fusion (Arabidopsis thaliana)
Setting: methotrexate growth selection, single substitutions
Starting sequence: PYL1, truncated, DHFR fusion (Arabidopsis thaliana); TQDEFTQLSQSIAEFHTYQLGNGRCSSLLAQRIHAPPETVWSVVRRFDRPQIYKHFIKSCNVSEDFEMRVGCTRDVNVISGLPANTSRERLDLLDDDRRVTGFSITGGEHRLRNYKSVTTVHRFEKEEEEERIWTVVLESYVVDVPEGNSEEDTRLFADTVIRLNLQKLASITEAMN; partner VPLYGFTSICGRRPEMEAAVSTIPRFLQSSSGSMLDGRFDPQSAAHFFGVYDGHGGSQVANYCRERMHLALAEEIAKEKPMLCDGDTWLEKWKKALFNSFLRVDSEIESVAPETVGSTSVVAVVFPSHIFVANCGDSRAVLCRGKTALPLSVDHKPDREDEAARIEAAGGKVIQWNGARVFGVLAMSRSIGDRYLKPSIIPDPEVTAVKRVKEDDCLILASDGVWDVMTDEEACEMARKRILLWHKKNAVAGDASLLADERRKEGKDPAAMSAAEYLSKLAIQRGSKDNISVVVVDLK
Variant = E14L; value = 4.13%
Variant = C72Q; value = 52.7%
Variant = P146E; value = -2.58%
Variant = A13W; value = 6.04%
Variant = D3S; value = 34.8%
Variant = F5T; value = 17.9%
Variant = T154K; value = 3.73%
Variant = I57N; value = -21.7%
Variant = T135S; value = 27.7%
Variant = S150V; value = 5.26%
Variant = S42M; value = 12%
Variant = V118I; value = 36.2%
Variant = K54M; value = -11%
Variant = W134L; value = 30.9%
Variant = E152D; value = 37.4%
Variant = R45E; value = -16.9%

Sample 5 — target: ATF7, bZIP domain (human); method: DHFR protein complementation; matrix: yeast; baseline: wild-type JUN-FOS pair; reading: higher = stronger binding; quantity: binding fitness
Setting: single substitutions, most at no-binding floor
Starting sequence: JUN, bZIP domain (human); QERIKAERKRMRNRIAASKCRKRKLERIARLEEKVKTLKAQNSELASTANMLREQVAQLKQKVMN; partner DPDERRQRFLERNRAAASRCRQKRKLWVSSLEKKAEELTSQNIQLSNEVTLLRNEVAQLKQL
Variant = M51K; value = -0.789 natural log
Variant = A40N; value = -1.09 natural log
Variant = L52T; value = -1.5 natural log
Variant = A49T; value = -1.33 natural log
Variant = L52E; value = -1.48 natural log
Variant = L45E; value = -1.47 natural log
Variant = L38N; value = -1.39 natural log
Variant = E44N; value = -1.17 natural log
Variant = Q41S; value = -1.4 natural log
Variant = E44A; value = -1.03 natural log
Variant = L59G; value = -1.44 natural log
Variant = E33A; value = -1.06 natural log
Variant = S43R; value = -0.751 natural log
Variant = E54W; value = -1.28 natural log
Variant = L31P; value = -1.5 natural log
Variant = S43D; value = -0.698 natural log
Variant = Q58R; value = -1.11 natural log
Variant = V35K; value = -1.57 natural log
Variant = L38A; value = -1.49 natural log
Variant = E32K; value = -0.91 natural log
Variant = R53S; value = -1.29 natural log
Variant = K34A; value = -1.2 natural log
Variant = E33F; value = -1.3 natural log
Variant = N42M; value = -1.39 natural log
Variant = A57V; value = -1.13 natural log

Single results of other studies
Molecule = PhoQ, residues 284 288 289 292 302 303 WSHMKI; target = PhoP, residues 12 14 15 18 19 VHSCL (Escherichia coli, UniProt P23836); assay = Sort-seq, refers to: YFP reporter; test system = E. coli; conditions = PhoQ-PhoP variant library, together with: 10 µM Mg2+; scale = baseline: high Mg2+ state, higher = stronger signaling; quantity = fold induction; value = 10.3

Repeated from above (sample 1):
Strand = GACGGTTTCGGACTGAGGACGTGCTAG; value = 3.49 z-score
Strand = TCAACTTGTCTTTTCACACTGTGCTAG; value = 1.52 z-score
Strand = TTAGGACTGTGTCTCGGTTAGTGCTAG; value = 0.187 z-score
Strand = AGATGAAAAGTGAAGCCTAGGTGCTAG; value = -0.915 z-score
Strand = TGCCCCCACACTCCTAGCACGTGCTAG; value = 0.415 z-score
Strand = GACGATATCGGGCATCGAGACGTGCTA; value = -0.44 z-score
